Results from different studies.
Parts stem from different laboratories: compare values within a part only.

Sample 1
Target: Prothrombin, mature alpha-thrombin (F2, Homo sapiens, UniProt P00734)
Technique: aptamer microarray, sandwich
Form: DNA with 2'F-ANA
Medium: in vitro
Concentration: 200 nM
Setting: whole 15-mer aptamer, many near background
Added: Cy3 exosite-II aptamer, 400 nM
Reading: higher = stronger binding
Sequence: GGTTGGTGTGGTTGG
Modification	mean fluorescence intensity [a.u.]
2'F-ANA at 2 4 6 8 11 12 14	113
2'F-ANA at 1 3 7 8 9 14 15	103
2'F-ANA at 2 3 4 6 9 10 13 15	172
2'F-ANA at 1 2 4 5 6 8 10 12 13 14 15	53.5
2'F-ANA at 2 3 4 5 6 7 9 10 11 12	59.8
2'F-ANA at 1 2 3 5 6 9 10 11 12 14	49.3
2'F-ANA at 1 2 3 12 14 15	93.1
2'F-ANA at 1 4 5 10 13	43.4
2'F-ANA at 6 8 10 13	143
2'F-ANA at 1 9 11 12 14	64
2'F-ANA at 1 2 3 5 6 7 8 10 12	50.3
2'F-ANA at 5 6 7 8 9 13	58
2'F-ANA at 3 6 7 10 11 13 14 15	327
2'F-ANA at 1 5 6 10 11 13 14	48.5
2'F-ANA at 4 6 7 9 10 12	107
2'F-ANA at 2 4 5 6 7 8 9 10 13	48.4
2'F-ANA at 2 4 5 6 9 10 12 13 14	67
2'F-ANA at 1 3 6 7 8 10 13 14 15	57.4
2'F-ANA at 3 5 7 10 11	52.4
2'F-ANA at 2 4 5 8 9 10	45.5
2'F-ANA at 3 6 7 8 9 14	527
2'F-ANA at 1 3 5 6 7 9 11 12 15	91.9
2'F-ANA at 1 6 7 9 11 12 13 15	199
2'F-ANA at 1 4 7 10 12 13 14	42.1

Sample 2
Target: RING finger protein unkempt homolog, zinc fingers 1-6, GST-SBP tag (UNK, Homo sapiens, UniProt Q9C0B0, residues 30-357)
UniProt Q9C0B0, sequence (30-357, looked up): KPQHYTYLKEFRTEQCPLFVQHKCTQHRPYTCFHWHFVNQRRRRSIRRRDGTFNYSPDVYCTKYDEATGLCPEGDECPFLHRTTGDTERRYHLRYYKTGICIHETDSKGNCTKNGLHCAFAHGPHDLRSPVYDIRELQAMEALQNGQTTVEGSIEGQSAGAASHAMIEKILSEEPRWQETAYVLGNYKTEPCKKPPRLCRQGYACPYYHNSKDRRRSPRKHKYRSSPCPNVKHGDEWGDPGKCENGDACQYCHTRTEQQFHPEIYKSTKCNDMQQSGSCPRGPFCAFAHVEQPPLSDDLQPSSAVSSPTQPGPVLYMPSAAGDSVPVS
Technique: RNA Bind-n-Seq
Form: RNA
Medium: in vitro
Concentration: not given
Setting: RNA with constant flanks, ends assumed
Baseline: input RNA pool
Reading: higher = stronger binding
Sequence	bound/input enrichment [ratio]
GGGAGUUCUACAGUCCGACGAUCGUCCAAACACAAUGUGACUGUUGUUUUUUAUACUGGCAUCGAGCUGUCUUCCCAAUUUAUUCCGAUGAUGUAUAUGAAAAUGCUGUUGAUGCAGCCAGAUUACAUUACAUGUUCAGUGCUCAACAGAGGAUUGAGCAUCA	0.126
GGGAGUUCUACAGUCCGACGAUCGUCAACAGUUGUCUCAAUCCCAUUCUCUAUGCUUUCUUGGAUGAGAACUUCAAGGCCUGCUUCCGAAAGUUCUGCUGUGCUUCUGCCCUGCACCGGGAGAUGCAGGUUUCUGAUCGUGUGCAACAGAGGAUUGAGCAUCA	0.421
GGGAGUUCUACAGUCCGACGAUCUGAGUGCACACCCCCCUCUGUGUGUGUGUGUGUGUGUGUGUGUGUAUGUGUGUGUAUGUGCCGGUCUGUAGAUCUCUUAUCCCUUAGUGAAGGUGAAUACCAGAAGUAAACACAGCCUCUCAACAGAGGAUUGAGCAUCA	0.443
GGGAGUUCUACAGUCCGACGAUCGAUCAGAAUGGAAUGACGCCUUUAAUGUGGGCAGCAUAUAGAACACAUAGUGUGGAUCCAACCCGAUUGCUUUUAACAUUCAAUGUUUCAGUUAACCUUGGUGACAAGUAUCACAAAAACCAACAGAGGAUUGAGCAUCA	0.235
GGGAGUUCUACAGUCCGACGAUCUAGAUAAUUCUUUUUAUUUUUUAUUUUUCCUUUCCCUCAAUCCUUUUUUAUUUUUAAAAACCGUUCUUUUGUAAUGUGGUGUUCAAAAUGAAAAUUGAAUACUGGCACUCCAUCUCUUAGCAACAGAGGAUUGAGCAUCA	127
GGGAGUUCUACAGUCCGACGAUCCCAAAUGUUCAGAAGUUGAAAUGGAUUGUUUCUGGGCGUACUGCACGGCAAUUGAAGCACCGCUACUACAGAAUAACUCACCUUCCAACAAUUCCUGAAAUGGUCCCUUAACUGGAUUAUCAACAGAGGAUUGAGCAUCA	0.107
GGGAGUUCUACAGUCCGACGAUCUAAUUUAAAAGAAUUACUAAUUCCCCUACCCCCAUCUGUGCUGAGGACAUUUCCCAGCCCCCGCUGGGGGAAAACAGCAUUUUCUUGAAGUGUGUGGCAUUAUCAAUGGGGAUUCAAAGUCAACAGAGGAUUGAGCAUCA	0.373
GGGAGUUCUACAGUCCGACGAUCGGAUGCCACCAAAGCCUCCCAUUUGCUAUAGUUUUAUUUCAUGCACUGGAAACUGAGCAUUUAUCGCCGAGUACCGCCAAGCUUUCACUCCAGUGCCGUUUGGCAAUGCAAUUUUUUUUACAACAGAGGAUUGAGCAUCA	1.44
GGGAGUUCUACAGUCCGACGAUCUGCCGUUUGAUUUUACACAUAAAAAGCAGUCGGGUGGUGCCGGCCAGUUUGGAAAAGUAACCGGAGUGCUGGAGCCCUUGCCCCCAGAGGACUACACGAAGUUGGAGUUUUCUGAUGAGACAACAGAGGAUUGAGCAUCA	0.153
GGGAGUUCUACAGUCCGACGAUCUGAAUAUGAUACUUCUUUAUUCACAGUAUCUGUGUCUCCUGCACCCUUUGGUGUUGCAAUUUCCGGUAUGUGAAAGUAGAUGUUAGCAGGGUUCUCUCCCUAUUUAAAAAUAAAUUUUAACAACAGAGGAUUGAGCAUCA	6.12
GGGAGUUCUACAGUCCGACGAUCUUGAAUGAUUUUGGCUUCAUGAUCUUUCACUCACCAUAUUGUAAACUGGUUCAGAAAUCUCCCGCUCGGAUGUUGCUGAAUGACUUCCUUAAUGACCAGAAUAGAGAUAAAAAUAGUAUCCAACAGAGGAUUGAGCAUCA	6.24

Sample 3
Target: RNA binding protein fox-1 homolog 2, RRM domain, GST-SBP tag (RBFOX2, Homo sapiens, UniProt O43251-10, residues 100-194)
Technique: RNA Bind-n-Seq
Form: RNA
Medium: in vitro
Concentration: 365 nM
Setting: natural RNA segment, single round, ends assumed
Baseline: no-protein control
Reading: higher = stronger binding
Residues (chain): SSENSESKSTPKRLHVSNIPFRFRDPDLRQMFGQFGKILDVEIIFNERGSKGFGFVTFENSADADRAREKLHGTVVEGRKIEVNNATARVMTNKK
Sequence	RBNS enrichment (R)
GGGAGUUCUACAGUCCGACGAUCCUGAGCCCACAGAAAGAGCCAGGAAAGCAUUAACAGAAAAGCCUGUCAGGACAUGUCCACCACUGGUCAGAAACUCUUCUUCCCGUGGAACCAAAUGUCCCAGACUCUCUUGGAAUUCUCGGGUGCCAA	0.293
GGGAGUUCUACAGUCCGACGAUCCCGCUCAGCCCAGCUGUUGGGAACAGCAUGGAGGCAGAUGUGGGGCUGAGCUGGGGAAUCAGGGUAAAAGGUGCAGGUGUGGAGAGAGAGGCUUCAAUCGGCUUGUGGGUUGGAAUUCUCGGGUGCCAA	14.7
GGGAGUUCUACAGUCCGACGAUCGUCAGCCACGGCUUCCACUUGCAUGGCUAUUCUAUUUUCACACGUGAGUUUCUGUUGCUGGCUGGCUGACUGGCAUUAUCUAUGCUAAGUUGAAAUCAGGGGUGCCCAGCUGGAAUUCUCGGGUGCCAA	4.03
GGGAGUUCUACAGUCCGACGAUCGUCCUUGUCUUUCCCAAUCUUUGUCCCUCCAUCCCCAGUGGCAUCAGGAGAGGAGUAGGUAAUGUUGGCCUUCAGUGGUAGCAGUCUUCUGGGGCAGGGGUCAGCCACUGUGGAAUUCUCGGGUGCCAA	0.61
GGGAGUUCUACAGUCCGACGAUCUCUCAUUUAUAAGUUAGACAUUCAUUCACUAGAACAUUUAUGCUCAGAAUCUUCCUUAAGAGGGUGUCCAGUAUUAACUUUGAUUGGGAUUAAUCCAGGCAAAAGAAGAGUGGAAUUCUCGGGUGCCAA	0.495
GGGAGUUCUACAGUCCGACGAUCCUGAUGUGUCCUGGGUUGGCAGGUGCCUGGCAGUCCAGACAUCACAGACCCCAGAACAAGGUGAAACCCCCCCCCCCCAUUUCUGGCCUUGUUUUUCUACCUCCCGCACUUGGAAUUCUCGGGUGCCAA	0.494
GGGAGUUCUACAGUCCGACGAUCGCCCUUAGCCUUGUGUCAUCUGCUUUUUCGUUCUGCGAUAUGCCCAGUUCCCAAAUCAAUUAUAGGUACCUGUUUAGGAGAGAGGAAGAUUUUACCUCUCAAAGGGUGAGUGGAAUUCUCGGGUGCCAA	0.334
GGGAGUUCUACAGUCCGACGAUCAGGCCACCCUGUAGUACAGGGAUGAGUCUUGGUGUGUUCUGCAGGGACAGGCCUGGAUGAUCUAGCUCAUACCAAAGGACCUUGUUCUGAGAGGUUCUUGCCUGCAGGAGUGGAAUUCUCGGGUGCCAA	1.76
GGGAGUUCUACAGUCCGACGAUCUAAAACUUCGUUAGAAGAAAGUAAUAGUAUUAUUUGCAGAAAGCCAGUCGAUCACAGCCAUUACCAAUAAGUUCAACCUCAAAGUACUUCAUAAAAAUCUGACCAAUCUAUGGAAUUCUCGGGUGCCAA	0.447
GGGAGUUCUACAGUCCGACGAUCAAAGUAAUUUAAAUUAGUGGGAAAGUAGCAUGCUUGCAUCACAUAGAGUGAGAUUGGUAUUCAUUUACCUAUGUUGCGCCAGUUUGUGUUGCAGUUUACCAAUUCAAUAUUGGAAUUCUCGGGUGCCAA	0.382
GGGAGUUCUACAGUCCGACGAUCUUUCAUGACCUAGGGAAAAAGGAAUUACUCCUUUUUGUAGACUCAUACCUGAAAGCAGUGAUUUACUAGAAUUGCUUUGUGUGGCUACUAAGUUUAUUUUGUCAAAAAUGUGGAAUUCUCGGGUGCCAA	0.368
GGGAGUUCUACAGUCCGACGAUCAGCUUUCGUCCCCUUGCACUUAGACUCGAAGUUAGUAAAUCCUUAAAGGCUUUUUAAUAGCAGACUUCCAAAAGAUUGCAUUUAGGAUUUCUAGCAUGCUUUUAAUUUCAUGGAAUUCUCGGGUGCCAA	7.08

Sample 4
Target: Interferon regulatory factor 7, full length, phosphomimetic (IRF7, Homo sapiens, UniProt Q92985, residues 1-503, S101K/S471D/S472D/S475D/S476D/S477D/S483D/S484D/S487D)
Technique: protein-binding microarray
Form: double-stranded DNA, one strand shown
Medium: in vitro
Concentration: 250 nM
Setting: 60-bp whole probe
Added: salmon DNA 0.4 mg/ml
Baseline: random background probes
Reading: higher = stronger binding
Constant ends, left off below: GCCTAGCAC … GTCTTGATTCGCTTGACGCTGCTG
Construct (chain): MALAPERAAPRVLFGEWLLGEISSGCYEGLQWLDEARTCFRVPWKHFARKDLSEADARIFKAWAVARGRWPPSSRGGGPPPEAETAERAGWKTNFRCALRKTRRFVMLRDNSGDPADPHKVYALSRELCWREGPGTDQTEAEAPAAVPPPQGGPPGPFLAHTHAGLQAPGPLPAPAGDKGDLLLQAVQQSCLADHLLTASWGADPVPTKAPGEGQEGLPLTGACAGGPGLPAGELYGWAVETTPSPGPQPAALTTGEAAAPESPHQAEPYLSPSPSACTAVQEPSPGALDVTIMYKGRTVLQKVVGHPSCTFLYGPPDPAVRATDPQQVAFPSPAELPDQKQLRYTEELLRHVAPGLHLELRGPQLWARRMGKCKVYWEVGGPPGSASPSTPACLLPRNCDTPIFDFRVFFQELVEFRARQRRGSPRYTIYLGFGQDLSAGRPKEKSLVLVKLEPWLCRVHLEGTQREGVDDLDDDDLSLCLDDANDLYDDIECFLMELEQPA
Sequence	log fluorescence [z-score]
TTAGGTTTCGGTTCCAGTTAGTGCTAG	12.3
TTAGGTCTCCTACTGCTATAGTGCTAG	0.0658
GACGGTTTCGACACTGTGGACGTGCTA	4.15
TCACTCCTCTTTTTTTGACTGTGCTAG	0.719
TTAGGTCTAGGTCTCGGTTAGTGCTAG	1.07
TTAGGTCTCGGCCTCGGTTAGTGCTAG	0.851
CCCACCTCTCACGGGCTTGTGTGCTAG	0.172
TCAGATTTCAGACTGGATTAGTGCTAG	0.367
AAGAGTTTCCCTCCCTGAGTGTGCTAG	0.895
TTAGATTTCAGTATCGATTAGTGCTAG	1.45
TCACTTCTCCATTTTTCACTGTGCTAG	1.46
TTAGCTTTCCTTCTCCTTTAGTGCTAG	0.766
TTAGAACTGGGGTATCGATTTGTGCTA	1.77
TCTCTTTTTGCTTTCTTTATGTGCTAG	2.48
GACGAACTGAGTTTCGCGACGTGCTAG	0.952
TCACCAATCATTTTTGCACTGTGCTAG	-0.173
TTGGGTTTCGACTATCGGTTAGTGCTA	4.18
TTAGGTATAGGTATCGGTTAGTGCTAG	0.839
TCAACAATGGCTTTGCCACTGTGCTAG	-0.733
TTAGATTTGAGTATCGATTAGTGCTAG	1

Excerpt of the above (sample 1):
Modification	mean fluorescence intensity [a.u.]
2'F-ANA at 5 6 7 8 9 13	58
2'F-ANA at 1 2 3 5 6 7 8 10 12	50.3
2'F-ANA at 1 3 7 8 9 14 15	103
2'F-ANA at 6 8 10 13	143
2'F-ANA at 1 3 6 7 8 10 13 14 15	57.4
2'F-ANA at 1 9 11 12 14	64
2'F-ANA at 2 3 4 5 6 7 9 10 11 12	59.8
2'F-ANA at 1 4 7 10 12 13 14	42.1
2'F-ANA at 2 3 4 6 9 10 13 15	172
